Experimental data from different studies.
Numbers after ± are the reported error.
Organism: Trypanosoma cruzi

Structure (SMILES) | assay | system | conditions | IC50 [µM]
Cc1cc(O)c2c(c1)C(=O)c1cc(O)cc(O)c1C2=O | parasite release from CHO cells |  | serum-free host culture | 0.7
O=[N+]([O-])c1nccn1CCCN(Cc1ccc2cc(Br)ccc2n1)Cc1ccc2cc(Br)ccc2n1 | growth | L6 myoblasts, Tulahuen C4 | intracellular amastigotes | 4 to 60
N#CSCCOc1ccc(Oc2ccccc2)cc1 | parasite growth | Vero | 72 h, intracellular, amastigote | 5
O=C(Cn1ccnc1[N+](=O)[O-])NCc1ccccc1 | growth | cardiomyocytes, Y, amastigote | 72 h, added: heme 30 µM | 2.5 ± 1.4
Cc1cc(C2CCCCC2)n(O)c(=O)c1 | imaging | 3T3 fibroblasts, amastigote | 48 h | 5.37 ± 0.51
COc1ccc(/C=C/C(=O)N2CCN(Cc3ccccc3)CC2)cc1 | parasite growth | mouse Peritoneal macrophage | 48 h, intracellular, amastigote | 28.6
O=[N+]([O-])c1ccc(/C=N/N=C/c2ccccc2)s1 | parasite growth, resazurin |  | trypomastigote | < 2.5
COc1ccccc1N1CCN(C(CNS(=O)(=O)c2ccc(Cl)cc2)c2cccnc2)CC1 (stereo not shown) | imaging | 3T3 fibroblasts, Tulahuen amastigote | 48 h | 1.73 ± 0.19
Clc1ccc2c(NCCCCn3cncn3)ccnc2c1 | parasite growth | L6, TULAHUEN | intracellular, amastigote | > 60
O=C(Nc1nc(-c2ccccn2)cs1)c1ccccc1Br | imaging | 3T3 fibroblasts, Tulahuen amastigote | 48 h | 1.29 ± 0.13
COc1ccc(Oc2ccc(OCCSC#N)cc2)cc1 | parasite growth | Vero | 72 h, intracellular, amastigote | 6.1
O=[N+]([O-])c1nccn1CCCN1CCN(Cc2ccc(C(F)(F)F)cc2)CC1 | growth | L6 myoblasts, Tulahuen C4 | intracellular amastigotes | 4 to 60
COc1ccc(C[C@H](N)C(=O)N[C@H]2[C@@H](O)[C@H](n3cnc4c(N(C)C)ncnc43)O[C@@H]2CO)cc1 | intracellular amastigote growth | 3T3 fibroblasts, Tulahuen | 48 h, re-sourced solid sample | 1.58 ± 1.44
COc1cc(/C=C/C(=O)N2CCN(Cc3ccccc3)CC2)ccc1O | parasite growth | mouse Peritoneal macrophage | 48 h, intracellular, amastigote | > 60
COc1ccc2sc(N(Cc3cccnc3)C(=O)c3ccc(C#N)cc3)nc2c1 | imaging | 3T3 fibroblasts, amastigote | 48 h | 3.55 ± 2.36
O=C1C(Cl)=C(NCCCn2cnc([N+](=O)[O-])n2)C(=O)c2ccccc21 | growth | L6 myoblasts, Tulahuen C4 | intracellular amastigotes | 4 to 60
COc1ccc(C(=O)N2CCN(Cc3ccccc3)CC2)cc1 | parasite growth | mouse Peritoneal macrophage | 48 h, intracellular, amastigote | > 60
O=C(NC(c1ccccc1)c1ccc2cccnc2c1O)c1ccccc1 (stereo not shown) | imaging | 3T3 fibroblasts, Tulahuen amastigote | 48 h | 1.42 ± 0.99
O=[N+]([O-])c1cccc(Oc2ccc(OCCOC3CCCCO3)cc2)c1 (stereo not shown) | parasite growth | Vero | 72 h, intracellular, amastigote | > 10
O=[N+]([O-])c1nccn1CCCCNc1nc(-c2ccccc2)nc(Cl)c1-c1ccccc1 | growth | L6 myoblasts, Tulahuen C4 | intracellular amastigotes | 4 to 60
O=[N+]([O-])c1ccc(/C=N/N=C/c2ccc([N+](=O)[O-])o2)cc1 | parasite growth, resazurin |  | trypomastigote | < 1
COc1ccc(C(=O)N2CCC(Cc3ccccc3)CC2)cc1 | parasite growth | mouse Peritoneal macrophage | 48 h, intracellular, amastigote | > 60
c1cncc(Oc2ccc(OCCOC3CCCCO3)cc2)c1 (stereo not shown) | parasite growth | Vero | 72 h, intracellular, amastigote | > 10
COc1ccc(C)c2sc(N(Cc3cccnc3)C(=O)c3ccc(C#N)cc3)nc12 | imaging | 3T3 fibroblasts, Tulahuen amastigote | 48 h, stored DMSO sample | 1.34 ± 0.00884
O=C(Cn1ccnc1[N+](=O)[O-])NCc1ccccc1 | parasite growth, resazurin |  | 48 h, epimastigote | 8.54

Excerpt of the above:
Structure (SMILES) | assay | system | conditions | IC50 [µM]
O=C1C(Cl)=C(NCCCn2cnc([N+](=O)[O-])n2)C(=O)c2ccccc21 | growth | L6 myoblasts, Tulahuen C4 | intracellular amastigotes | 4 to 60
COc1ccc(C(=O)N2CCN(Cc3ccccc3)CC2)cc1 | parasite growth | mouse Peritoneal macrophage | 48 h, intracellular, amastigote | > 60
